Results pooled from the literature.
Each line is one published result; not all experiments were run side by side. “And” joins repeats or separate records; there may be more than shown. ± gives the spread as reported.
Organism: Acinetobacter baumannii

`C[C@@H](O)[C@H]1C(=O)N2C(C(=O)O)=C(S[C@@H]3CN[C@H](C(=O)N(C)C)C3)[C@H](C)[C@H]12` gave an MIC of 4 µg/mL (Kelly lung isolate).
`N=C(N)c1ccc(OCc2cc(Br)cc(COc3ccc(C(=N)N)cc3)c2)cc1` — result for “MIC in combination”: 6.25 µg/mL (ATCC 17978; concentration not given, added: rifampicin).
Under “MIC fold shift”, `O=C(N[C@H](CO)[C@H](O)c1ccc([N+](=O)[O-])cc1)C(Cl)Cl` is recorded as 0.5 (broth microdilution; NCTC 13424; baseline: 5% CO2 over ambient air).
`c1ccc(CSc2nc3ccc(-c4ccccc4)cc3cc2CNCc2ccc(CN3CCCC3)cc2)cc1` gave an inhibition of 22% (NADH-driven proton pumping, ACMA quenching; inverted membrane vesicles; 2 µg/mL).
Under “MIC in combination”, `N=C(N)c1ccc(OCc2ccc(Br)cc2COc2ccc(C(=N)N)cc2)cc1` is recorded as 6.25 µg/mL (ATCC 17978; concentration not given, added: rifampicin).
`c1ccc(CSc2nc3ccccc3cc2CNCc2ccc(N3CCCCC3)cc2)cc1` gave an inhibition of 89% (NADH-driven proton pumping, ACMA quenching; inverted membrane vesicles; 32 µg/mL).
`CN[C@@H]1[C@@H](O[C@H]2O[C@H](CO)[C@@H](N)[C@H](O)[C@H]2O)OC2C[C@@H](N)[C@@H](O[C@H]3[C@H](O)[C@@H](O)[C@H](N)C[C@@H]3N)OC2[C@@H]1O` (stereo partly shown) — result for “MIC fold shift”: 1 (broth microdilution; NCTC 13424; baseline: 5% CO2 over ambient air).
The MIC of `CN(C)c1ccc2nc3ccc(=[N+](C)C)cc-3sc2c1` is reported as > 128 µM (broth microdilution; ATCC 19606, susceptible; 18 h, 37 °C, LED light 10 min, 1.57 mW).
With `C[C@@H](O)[C@H]1C(=O)N2C(C(=O)O)=C(S[C@@H]3CN[C@H](C(=O)N(C)C)C3)[C@H](C)[C@H]12` the MIC was 48 µg/mL (clinical isolate 2B6).
`CCN1CCC(CCNCc2cc3cc(-c4ccccc4)ccc3nc2SCc2ccccc2)CC1` gave an inhibition of 25% (NADH-driven proton pumping, ACMA quenching; inverted membrane vesicles; 32 µg/mL).
With `CC(C)C[C@H](NC(=O)[C@H](Cc1ccc(O)cc1)NC(=O)[C@@H]1CCCN1C(=O)[C@H](CCCNC(=N)N)NC(=O)[C@@H]1CCCN1C(=O)[C@H](CCCCN)NC(=O)[C@H](CC(=O)O)NC(=O)[C@@H]1CCCN1C(=O)[C@H](CCCNC(=N)N)NC(=O)C1(N)CCCCC1)C(=O)N1CCC[C@H]1C(=O)N[C@@H](CCCNC(=N)N)C(=O)N1CCC[C@H]1C(=O)N[C@@H](CCCNC(=N)N)C(=O)N1CCC[C@H]1C(=O)N1CCC[C@H]1C(=O)N[C@@H](CCCNC(=N)N)C(=O)N1CCC[C@H]1C(=O)N[C@H](C(=O)N[C@@H](CCCNC(=N)N)C(=O)N[C@@H](CSSC[C@H](NC(=O)[C@H](CCCNC(=N)N)NC(=O)[C@@H](NC(=O)[C@@H]1CCCN1C(=O)[C@H](CCCNC(=N)N)NC(=O)[C@@H]1CCCN1C(=O)[C@@H]1CCCN1C(=O)[C@H](CCCNC(=N)N)NC(=O)[C@@H]1CCCN1C(=O)[C@H](CCCNC(=N)N)NC(=O)[C@@H]1CCCN1C(=O)[C@H](CC(C)C)NC(=O)[C@H](Cc1ccc(O)cc1)NC(=O)[C@@H]1CCCN1C(=O)[C@H](CCCNC(=N)N)NC(=O)[C@@H]1CCCN1C(=O)[C@H](CCCCN)NC(=O)[C@H](CC(=O)O)NC(=O)[C@@H]1CCCN1C(=O)[C@H](CCCNC(=N)N)NC(=O)C1(N)CCCCC1)C(C)C)C(=O)NN)C(=O)NN)C(C)C` the MDC was 43.9 ± 1 µg/mL (membrane disruption, propidium iodide uptake; 19606; 90 min, 37 °C).
For `CN1CCN(CCNCc2cc3ccccc3nc2SCc2ccccc2)CC1`, the inhibition was 0% (NADH-driven proton pumping, ACMA quenching; inverted membrane vesicles; 2 µg/mL).
For `Cc1c(CN(C)C(=O)/C=C/c2cnc3c(c2)CC(NC(=O)OC(C)(C)C)C(=O)N3)oc2ccccc12` (stereo not shown), the MIC was > 32 µg/mL (broth microdilution; AR-0083).
Under antimicrobial activity, `CCCCCCCCCC(=O)N[C@@H](Cc1c[nH]c2ccccc12)C(=O)N[C@H](CC(N)=O)C(=O)N[C@@H](CC(=O)O)C(=O)N[C@@H]1C(=O)NCC(=O)N[C@@H](CCCN)C(=O)N[C@@H](CC(=O)O)C(=O)N[C@H](C)C(=O)N[C@@H](CC(=O)O)C(=O)NCC(=O)N[C@H](CO)C(=O)N[C@@H]([C@H](C)CC(=O)O)C(=O)N[C@@H](CC(=O)c2ccccc2N)C(=O)O[C@@H]1C` is recorded as “inactive” (DSM 30007, iron-rich Mueller-Hinton broth; concentration not given, 18 h, added: CaCl2 110 µg/mL).
The inhibition of `CCN1CCC(CCNCc2cc3cc(Br)ccc3nc2SCc2ccccc2)CC1` is reported as 18% (NADH-driven proton pumping, ACMA quenching; inverted membrane vesicles; 2 µg/mL).
`N=C(N)c1cccc(OCc2ccc(COc3cccc(C(=N)N)c3)cc2)c1` — result for “MIC in combination”: 25 µg/mL (ATCC 17978; concentration not given, added: rifampicin).
With `CCN1CCC(CCNCc2cc3cc(OC)c(OC)c(OC)c3nc2SCc2ccccc2)CC1` the inhibition was 0% (NADH-driven proton pumping, ACMA quenching; inverted membrane vesicles; 2 µg/mL).
`Cc1c(CN(C)C(=O)/C=C/c2cnc3c(c2)CCC(=O)N3)oc2ccccc12` gave an MIC of > 32 µg/mL (broth microdilution; W41979).
`N=C(N)c1ccc(OCc2ccc(-c3ccccc3)cc2COc2ccc(C(=N)N)cc2)cc1` has an FICI of ≤ 0.023 (checkerboard; ATCC 17978; unit not given, added: rifampicin; lower = stronger synergy).
With `C[C@@H](O)[C@H]1C(=O)N2C(C(=O)O)=C(SCCN=CN)C[C@H]12` the bacterial load was 3.95 log CFU and 2.22 log CFU and 2.82 log CFU and 3.22 log CFU and 2.52 log CFU (0403, female ICR mice, peritonitis, liver; dose not given).
`Brc1ccc2nc(SCc3ccccc3)c(CNCCC3CCN(C4CCCC4)CC3)cc2c1` gave an inhibition of 8% (NADH-driven proton pumping, ACMA quenching; inverted membrane vesicles; 2 µg/mL).
For `N=C(N)c1ccc(OCCC(CCOc2ccc(C(=N)N)cc2)c2ccccc2)cc1` (stereo not shown), the FICI was ≤ 0.047 (checkerboard; ATCC 17978; unit not given, added: rifampicin; lower = stronger synergy).
The inhibition of `CN1CCN(CCNCc2cc3cc(Br)ccc3nc2SCc2ccccc2)CC1` is reported as 87% (NADH-driven proton pumping, ACMA quenching; inverted membrane vesicles; 32 µg/mL).
Under “MIC fold shift”, `C[C@H]1COc2c(N3CCN(C)CC3)c(F)cc3c(=O)c(C(=O)O)cn1c23` is recorded as 1 (broth microdilution; NCTC 13424; baseline: 5% CO2 over ambient air).
`N=C(N)c1ccc(OCc2ccccc2COc2ccc(C(=N)N)cc2)cc1` — result for “MIC in combination”: 25 µg/mL (ATCC 17978; concentration not given, added: rifampicin).

For quick reference, copied from above:
`c1ccc(CSc2nc3ccc(-c4ccccc4)cc3cc2CNCc2ccc(CN3CCCC3)cc2)cc1` gave an inhibition of 22% (NADH-driven proton pumping, ACMA quenching; inverted membrane vesicles; 2 µg/mL).
`CCN1CCC(CCNCc2cc3cc(-c4ccccc4)ccc3nc2SCc2ccccc2)CC1` gave an inhibition of 25% (NADH-driven proton pumping, ACMA quenching; inverted membrane vesicles; 32 µg/mL).
Under “MIC fold shift”, `O=C(N[C@H](CO)[C@H](O)c1ccc([N+](=O)[O-])cc1)C(Cl)Cl` is recorded as 0.5 (broth microdilution; NCTC 13424; baseline: 5% CO2 over ambient air).
The MIC of `CN(C)c1ccc2nc3ccc(=[N+](C)C)cc-3sc2c1` is reported as > 128 µM (broth microdilution; ATCC 19606, susceptible; 18 h, 37 °C, LED light 10 min, 1.57 mW).
